Experimental data collected from several papers.
Numbered parts are unrelated; each lists some results of a single study.

Series 1
Target: TAR DNA-binding protein 43, full length, His tag (TARDBP, Homo sapiens, UniProt Q13148, residues 1-414)
Technique: RNA Bind-n-Seq
Form: RNA
Sample: in vitro
Concentration: 20 nM
Notes: 6-mer, flanks averaged, single round
With: 150 mM KCl
Baseline: input library
Direction: higher = stronger binding
Endpoint: 6-mer enrichment (R)
Sequence = AGGUCC; result = 0.786
Sequence = AGAUUU; result = 0.563
Sequence = CAACUG; result = 0.686
Sequence = ACACAU; result = 0.65
Sequence = GGUAGG; result = 3.7
Sequence = AUAAAU; result = 0.718
Sequence = AAGAGU; result = 0.916
Sequence = UCUCGA; result = 0.564
Sequence = CCGAGA; result = 0.885

Series 2
Target: RNA binding protein fox-1 homolog 2, RRM domain, GST-SBP tag (RBFOX2, Homo sapiens, UniProt O43251-10, residues 100-194)
Technique: RNA Bind-n-Seq
Form: RNA
Sample: in vitro
Concentration: 365 nM
Notes: natural RNA segment, single round, ends assumed
Baseline: no-protein control
Direction: higher = stronger binding
Endpoint: RBNS enrichment (R)
Constant ends, left off below: GGGAGUUCUACAGUCCGACGAUC … UGGAAUUCUCGGGUGCCAA
Target sequence (chain): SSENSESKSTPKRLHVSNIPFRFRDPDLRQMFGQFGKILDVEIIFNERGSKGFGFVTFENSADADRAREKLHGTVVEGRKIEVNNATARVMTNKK
Sequence = CUCAGAUUCCUUAAGCAUGCAGAGUCACUCGAAUGAAAAAACAUACUCGACCUCUCCCUAAAAAGAUGUUGCAACCCAGUUUCUCUGAAUUCCACCACAAAAAGAGACCC; result = 19.7
Sequence = AGUUUGGAGAAAUGAUGAGCUACGCCUUGAUGAAAGAACCGUGUUGGUGCUGCUAAGUUUAGCCAUUAUGGUUUUUCCUUUCUCUCUCUUAAGCCUUAUUCUUCAACUAA; result = 0.33
Sequence = CUUGUGUUUUUUAGUAAAAUUGCUUAUUUUUUUCCCAAAGGUGGAAUUUAAUGUUUUGUAGUGAUGAAUAUGAAAAUGCCUGUCAUCUUUAGAUCAUUGAAAGGUUAACU; result = 0.779
Sequence = GGUGGAAGGGGGUGCAUGUAUGUGUUAGUGUUUGUGUGUGUGUGUGUGUCUGUCUGUUCGUCUGUCCACCUAUCUUUGUGGAAGUCACUGUGAUGGUAGUGACUUUAUGA; result = 23.2
Sequence = UGCCAGAGGUGGUUUUUGAACAGGAAAAUCAUAAUUCAUAUCAUUGGAGAAGUAUUUAUUUUCAAAUAUCAAAUUGAAGAAAAACUCAAUCCUCCCAUGAAAAUCAGUUC; result = 0.491
Sequence = UGUGUUAAACCGCUUGAGUUACACCUUGUGACCCUUCUCCCAUAACAUGGUGUGAGGACGGACUGGGAGCCGGUACAGACUCCAGUGUUUACAGCUUUGCCAUGUCCCCA; result = 0.339
Sequence = AUAAUGGACAUUGCCAUCUCUGCCCUUUGGUCCUCCUUGCUUCUCUCCAUACAAUAAGACACCUCCGAAGCAAAAUGGCGGCCCUUGCUCCAGGCAGGACAUCAGACUGU; result = 0.38
Sequence = UGCCUUCCUUGUUCUGGUGGAGCUGGGGUUUCUCUCCUCCCCAGUCCCACAACACUGCCAAAAAUCUGUGUAUGUGCCAUUGGGUGGGGCAGCCCCAAGCCUCCUGGGGA; result = 0.796
Sequence = CCUGCCUUUUCCAGGGGUAGGUCUGUUUCUUUGCUGUUCUAUUGUCUUGAGAGCACAGACUAACACUUACCAAAUGAGGGAACUCUUGGCCCAUACUAAGGCUCUUCUGG; result = 1.85
Sequence = UCUUUUGUAGUAGCUGAGAUCUGCAAUAUAUAACGGGACAGUCAAAGGGCAAUGUUUUUCUGUAACAUAUUGGAAAAAGAAAAUGCAGUUAUAUUCCUUUUUUAUUUGUU; result = 0.799
Sequence = CACUAGAUAACUUUCAGUAUCAGUGGUGGUUACUUAUUACUUAAAUCAGAGGAAGGAUUUUAUAAAGAUUAAUAAAUUUAAUUUUACCAAUAAAUAUUCCCAUAAUUUAG; result = 0.61
Sequence = UGUCUCCAUCCCCAUGCCUUGUUCUAACUUGCAUACUUGUCCUUUCUGCUCGAAGCUGUCACUUCCUUCUAAGGAUUUACAGAGGCCUAGGGCCCUAACCUUCAGGGGUG; result = 0.791

Series 3
Target: RING finger protein unkempt homolog, zinc fingers 1-6, GST-SBP tag (UNK, Homo sapiens, UniProt Q9C0B0, residues 30-357)
UniProt Q9C0B0, sequence (30-357, looked up): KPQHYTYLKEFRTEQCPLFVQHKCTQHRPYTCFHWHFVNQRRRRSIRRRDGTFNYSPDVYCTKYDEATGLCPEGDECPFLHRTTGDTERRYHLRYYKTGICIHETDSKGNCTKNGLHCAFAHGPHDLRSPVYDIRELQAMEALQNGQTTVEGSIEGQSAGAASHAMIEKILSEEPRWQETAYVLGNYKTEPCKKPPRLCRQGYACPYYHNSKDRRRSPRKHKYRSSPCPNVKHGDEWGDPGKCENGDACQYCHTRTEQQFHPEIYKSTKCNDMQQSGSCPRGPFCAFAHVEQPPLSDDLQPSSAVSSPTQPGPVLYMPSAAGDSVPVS
Technique: RNA Bind-n-Seq
Form: RNA
Sample: in vitro
Concentration: not given
Notes: RNA with constant flanks, human and mouse sites, ends assumed
Baseline: input RNA pool
Direction: higher = stronger binding
Endpoint: bound/input enrichment
Constant ends, left off below: GGGAGUUCUACAGUCCGACGAUC … CAACAGAGGAUUGAGCAUCA
Sequence = CAAUAUUUGUACAUUAUGUGAUUUAUGUUUUUUUGAUGUCAACAGUUUGUGAUUUGAGUGAAGUAUUUGUAAACUGCUGUUUUCUGCACUAUUCCUGUUCACACUUCAUCGUGUGGUCAG; result = 0.488 ratio
Sequence = GCAGACACAGUGAAGCCUGAAGCAGAACUGGCUAUCCAUAUUCUGAAAUCUAUGGGCUUAGAAGUAGUUCUGAUGACUGGAGACAACAGUAAAACAGCUAGAUCUAUUGCUUCUCAGGUU; result = 0.283 ratio
Sequence = ACUUUAUGUUUUGUUGAAAAUAGUGGCCAAAGGGAGUCAUUAAGUGGAGACACAGGAAGUCUGUCAUGUGACAAUGCAUUGUUUGUAAUUGACACAACUCCUGGAAUGAGUGCUGAUAAA; result = 0.211 ratio
Sequence = UGCAACCAGCCUCAGGAUGCCAUUAAAUGCUACUUAAAUGCAACUAGAAGCAAAAGUUGUAGUAAUACCUCUGCACUUGCAGCACGAAUUAAGUAUUUACAGGCUCAGUUGUGUAACCUU; result = 0.23 ratio
Sequence = CGAAAUUUGAAUCUCUUUAAGUUAUUCAGACUUGUACACAAACUUGGAGGAUUUGAUAAUAUUGAAAGUGGAGCUGUUUGGAAACAAGUCUACCAAGAUCUUGGAAUCCCUGUCUUAAAU; result = 0.135 ratio
Sequence = ACCUUGGACGCUGCAAGAGGAGCUGUCAAGCCCGGCAGGCUCUGAUUUGGCCCCCUCCGUUUUUCUCUGCUGCUCGUGGCUUCCCCGUGCCUCGGUGGAGUAUUUGCGUUCGGGGCUGGG; result = 0.168 ratio
Sequence = AUGUAUCUUUCAUGAUUAAUGUGUGUGUGGGCAGCACCCUAAUCUAGAAUUCAUUCAUAAAAUAGUGUUCCUACAUAGAAAAAUUUAGGAAGAGAAAUUACCCAUUGUGGUAAAGUUAUC; result = 62.9 ratio
Sequence = UCGCAGCGGAGAGAGCAGAAGGCAGGAGGAGGGAGGGGAGGAGGGAGGAGGGAGGGAGAGAGGGAAUCCAGCUACCACCACCCAAAGCCAGCGUCUGCUUUCUGUCCUCAUUUCCUUUUC; result = 0.408 ratio

Series 4
Target: Sal-like protein 4, full length isoform B (SALL4, Homo sapiens, UniProt Q9UJQ4-2, residues 1-616)
Technique: universal PBM
Form: double-stranded DNA, one strand shown
Sample: in vitro
Concentration: not given
Notes: 8-mer, flanks averaged, mean of replicates
Direction: higher = stronger binding
Endpoint: E-score
Residues (chain): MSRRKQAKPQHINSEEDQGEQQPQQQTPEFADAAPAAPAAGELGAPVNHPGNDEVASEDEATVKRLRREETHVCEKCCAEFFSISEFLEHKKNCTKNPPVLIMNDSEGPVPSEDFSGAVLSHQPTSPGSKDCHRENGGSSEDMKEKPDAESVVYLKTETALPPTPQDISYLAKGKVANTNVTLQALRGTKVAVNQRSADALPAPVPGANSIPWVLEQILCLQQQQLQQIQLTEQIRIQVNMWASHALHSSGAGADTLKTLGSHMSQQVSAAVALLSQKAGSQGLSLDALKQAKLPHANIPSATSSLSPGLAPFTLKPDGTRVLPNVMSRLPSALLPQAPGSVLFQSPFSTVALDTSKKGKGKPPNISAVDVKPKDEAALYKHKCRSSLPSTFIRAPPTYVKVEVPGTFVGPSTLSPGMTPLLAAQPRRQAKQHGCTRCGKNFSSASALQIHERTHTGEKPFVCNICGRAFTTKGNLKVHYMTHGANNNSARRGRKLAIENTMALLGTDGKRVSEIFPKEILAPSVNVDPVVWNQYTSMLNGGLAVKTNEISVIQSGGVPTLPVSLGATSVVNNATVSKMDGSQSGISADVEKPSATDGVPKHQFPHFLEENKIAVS
Sequence = TCCCATAA; result = 0.258
Sequence = ACCGTGCT; result = -0.271
Sequence = GTTGCAAA; result = 0.0588
Sequence = CCTGGTTC; result = -0.222
Sequence = ATAAGCAC; result = 0.115
Sequence = GTCCACAA; result = 0.0432
Sequence = CAGCGCAA; result = -0.186
Sequence = CCTAGCGC; result = -0.279
Sequence = ACTCGGAT; result = -0.0791
Sequence = ATACTTGC; result = 0.224
Sequence = GGTAAACA; result = 0.23
Sequence = ATCAAACC; result = 0.0345
Sequence = TCGACCAA; result = -0.0659
Sequence = CGCGCTTA; result = -0.208
Sequence = CTAAGCTC; result = -0.135
Sequence = CTACATTA; result = 0.175
Sequence = AGATGGAC; result = -0.0124
Sequence = AAACAAAT; result = 0.299
Sequence = GCCACCAC; result = -0.0988
Sequence = AGCACTTA; result = 0.0488
Sequence = TCTACGAA; result = -0.00649

Series 5
Target: Histone acetyltransferase KAT6A, both winged helices, GST fusion (KAT6A, Homo sapiens, UniProt Q92794, residues 1-181)
Technique: protein binding microarray
Form: double-stranded DNA, one strand shown
Sample: in vitro
Concentration: not given
Notes: 8-mer, flanks averaged, mean of 2 arrays, mostly near background
Baseline: not given
Direction: higher = stronger binding
Endpoint: E-score
Residues (chain): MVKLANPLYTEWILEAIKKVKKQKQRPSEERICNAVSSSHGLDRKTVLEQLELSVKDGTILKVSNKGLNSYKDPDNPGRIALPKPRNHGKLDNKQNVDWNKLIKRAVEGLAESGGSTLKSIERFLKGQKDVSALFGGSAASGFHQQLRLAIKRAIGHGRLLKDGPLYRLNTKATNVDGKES
Sequence = CCCACATA; result = -0.053
Sequence = AGTTCCGG; result = 0.111
Sequence = AACGACAC; result = -0.146
Sequence = AAAAGGTC; result = -0.181
Sequence = GACTGACA; result = -0.0309
Sequence = CATCGACA; result = -0.0893
Sequence = ATATAATA; result = -0.0665
Sequence = GAATAGAA; result = -0.134
Sequence = CAGCGACC; result = 0.0618
Sequence = CACATGCG; result = 0.182
Sequence = ATGCGGCC; result = 0.201
Sequence = GACCGACC; result = 0.0413
Sequence = AGTTGCAC; result = -0.116
Sequence = ACCGCACG; result = 0.202
Sequence = ACACTGGT; result = -0.197
Sequence = AATTTAAG; result = -0.127
Sequence = TCCACCCA; result = -0.225
Sequence = CGAATAGA; result = -0.0849
Sequence = TGCCCCCA; result = -0.22
Sequence = ATTATGCA; result = -0.0652
Sequence = AACATAGC; result = -0.106
Sequence = AATGATCG; result = 0.0288
Sequence = GATACAGC; result = -0.00274
Sequence = AGCGCACC; result = 0.213

Series 6
Target: Interferon regulatory factor 5, full length, phosphomimetic (IRF5, Homo sapiens, UniProt Q13568-2, residues 1-514, K96S/S451D/S453D/S456D/S462D)
Technique: protein-binding microarray
Form: double-stranded DNA, one strand shown
Sample: in vitro
Concentration: 250 nM
Notes: 60-bp whole probe
With: salmon DNA 0.4 mg/ml
Baseline: random background probes
Direction: higher = stronger binding
Endpoint: log fluorescence
Constant ends, left off below: GCCTAGCAC … GTCTTGATTCGCTTGACGCTGCTG
Sequence = TTAGGTTTGCTTTTCCTTTAGTGCTAG; result = 0.528 z-score
Sequence = GACGGTCTCCTTTTCCTTACGTGCTAG; result = 0.4 z-score
Sequence = GACAAACTGGGGTATCGAGACGTGCTA; result = 0.404 z-score
Sequence = TTAGATATGAGTTTCGATTAGTGCTAG; result = 8.59 z-score
Sequence = ATTTACATGCATATAGTATAGTGCTAG; result = 0.652 z-score
Sequence = GATGATTTCAGTTCCGAGACGTGCTAG; result = 1.91 z-score
Sequence = GACTATATCAGTCTCGAGACGTGCTAG; result = 1.04 z-score
Sequence = TCATTTCTCAACCTCCAACTGTGCTAG; result = 0.672 z-score
Sequence = AGAGCTCTGGCACCTCTAGACGTGCTA; result = -0.783 z-score
Sequence = TTAGATATCTGACTGGATTAGTGCTAG; result = 0.191 z-score
Sequence = TTTGACATCTTCATCAACTAGTGCTAG; result = 0.356 z-score
Sequence = TCATTATCCTATATCTGACTGTGCTAG; result = 0.81 z-score
Sequence = TTCACTCTCTGCTTGTGTCTGTGCTAG; result = 0.688 z-score
Sequence = TTAGCACTGGGGTTTCGGTTAGTGCTA; result = 6.82 z-score
Sequence = GACGGTCTCCTGCTCCTGACGTGCTAG; result = -0.297 z-score

A few entries again (series 5):
Sequence = CGAATAGA; result = -0.0849
Sequence = TCCACCCA; result = -0.225
Sequence = CAGCGACC; result = 0.0618
Sequence = ACACTGGT; result = -0.197
Sequence = AGTTGCAC; result = -0.116
Sequence = AATTTAAG; result = -0.127
Sequence = ATTATGCA; result = -0.0652
Sequence = GATACAGC; result = -0.00274
